Results from different studies.
A part holds a random share of what one study measured.

Set 1 — method: RNA Bind-n-Seq; molecule type: RNA; matrix: in vitro; tested at: not given; notes: RNA with constant flanks, ends assumed; reference: input RNA pool; direction: higher = stronger binding
Target: RING finger protein unkempt homolog, zinc fingers 1-6, GST-SBP tag (UNK, Homo sapiens, UniProt Q9C0B0, residues 30-357)
Target sequence (chain): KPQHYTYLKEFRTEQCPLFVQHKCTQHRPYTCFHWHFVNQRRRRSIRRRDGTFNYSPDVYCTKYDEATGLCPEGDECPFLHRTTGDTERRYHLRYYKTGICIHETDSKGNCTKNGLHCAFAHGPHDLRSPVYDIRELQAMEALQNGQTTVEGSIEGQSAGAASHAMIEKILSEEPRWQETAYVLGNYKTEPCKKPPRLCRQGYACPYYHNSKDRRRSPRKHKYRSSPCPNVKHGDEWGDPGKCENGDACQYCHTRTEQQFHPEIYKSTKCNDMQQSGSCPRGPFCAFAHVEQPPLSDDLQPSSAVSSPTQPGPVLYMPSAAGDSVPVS
Oligonucleotide | bound/input enrichment [ratio]
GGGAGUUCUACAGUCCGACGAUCCUCUAGAUUCUGUAUCUAGAUCACCAUGGCGACUGGACAGAAGUUGAUGAGAGCUGUCCGAGUUUUUGAAUUUGGUGGGCCAGAAGUCCUGAAAUUGCGAUCAGAUAUUGCAGUACCGAUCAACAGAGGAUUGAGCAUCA | 0.163
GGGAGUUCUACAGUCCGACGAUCCAGUGGCCCCAUGGAGAGCUUUCUCUGUCUGGGAUUGAACUGAGAUCCUGAGGUUUUCUUUCCGGAAACUAAAGUAAACUUGCCAUUACUAAAUUUGUAAAGUUGAGAUUCACUCCUUAACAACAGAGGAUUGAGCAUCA | 0.093
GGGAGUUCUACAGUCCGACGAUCGAGGAAGAACAAGAAGAGAACCUUGAAGCAAGUGGAGACUAUAAAUAUUCAGGAAGAGACCGUUUGAUUUUUUUGGUUGAUGCCUCCAAGGCUAUGUUUGAAUCUCAGAGUGAAGAUGAGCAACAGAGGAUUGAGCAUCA | 0.478
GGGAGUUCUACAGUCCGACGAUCCCAGGAAAAGUGUCUGGCAGCCCUGAGCAAGCCGUGGAGGAAAACCUUAGUUCCUAUUCCUCCGACAGAAGAGUGACACCCGCCUCUGAGACCCUAGAAGACCCUUGCAGGACAGAGUCCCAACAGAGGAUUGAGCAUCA | 0.295
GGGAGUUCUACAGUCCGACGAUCCCUGCUACAGUUUUUAUGCUCUUUAGUGGCCAAGGAAGUUUGCUCCAGCCUUUUAUAUAUUACCGAUUUCUUACUCUUCGAUAUUCCUCUAGAAGAAAUCCAUAUUGUCGGAACUUGUUUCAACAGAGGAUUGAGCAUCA | 3.77
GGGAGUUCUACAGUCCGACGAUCAUCAGAAGAGUGAAAUCUCAUAAGGAAUUUUUGAAUAAAACAACACACCAGCUUUUGUUUGUCCGACAUCAGUUUAAAAUAGCUUUCUUCAGUGAGUUGAAACAAGAUACACAAAACGCCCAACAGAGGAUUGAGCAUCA | 0.636
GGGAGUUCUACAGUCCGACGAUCUUUUUAAAAAAAUAAAAUAAAACAUAAAUAUUACUCUUCCAUAUUCCUUCUGCCUAUAUUCCGUAAUUAAUUUAUUUUAUGAUAAAGUUCUAAUGAAAUGUAAAUUGUUUCAGCAAAAUUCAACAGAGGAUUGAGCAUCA | 2.21
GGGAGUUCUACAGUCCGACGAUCAAUCACUAAACUGUGCCUAAAGAACAUAACUGCCAUAUUAAUGUUUUGGUUUAUAUCCUCUACCGUAAUAGAAAAACAUUUAAUACUUGUAAUGCUGAUGUGUUAAUUUGAUACCAGUUGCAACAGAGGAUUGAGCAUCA | 0.374
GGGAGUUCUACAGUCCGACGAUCCAAGACCCAACCAUUUCUUCCACCUGCUUGAUUGUGCCAGUGUUUGCUCAGGCCUCUUUCUCCGUGUUGCUUUCAAAUCCUUCUCUUUCCUGGGUUGGGAAGGCCAGGCAGGGACAGAGCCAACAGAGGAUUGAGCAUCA | 0.378
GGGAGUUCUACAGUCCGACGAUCCUGAGCACAGGGGAGUUCUUGAAACUCCCUUUUGAGCGUCUUGCCUUCGUGCUUUCCAGUAACCGCCUUAAGCACUGUACUGAACUUGAGCUCUUUAAGGCUACCUGUCGUUGGCUUCGCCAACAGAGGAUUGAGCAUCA | 0.063
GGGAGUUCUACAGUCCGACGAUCCUUGAGCCUAACAAGUCCAUCUUCAAGCAAAUGAAAUCUCAUCCACCAUACACCAUGUGCUUCCGAGUGAAAUUCUACCCACAUGAACCCUUGAAGAUUAAAGAAGAGCUCACAAGGUACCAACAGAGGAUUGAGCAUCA | 0.231

Set 2 — method: RNA Bind-n-Seq; molecule type: RNA; matrix: in vitro; tested at: 365 nM; reference: no-protein control; direction: higher = stronger binding
Target: RNA binding protein fox-1 homolog 2, RRM domain, GST-SBP tag (RBFOX2, Homo sapiens, UniProt O43251-10, residues 100-194)
Notes: natural RNA segment, single round, ends assumed
Residues (chain): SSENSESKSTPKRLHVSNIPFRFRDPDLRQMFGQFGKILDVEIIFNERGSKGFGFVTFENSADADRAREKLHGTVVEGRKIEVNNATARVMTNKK
Oligonucleotide | RBNS enrichment (R)
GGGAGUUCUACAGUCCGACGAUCUGUCUUGAUAAGAGCAGAUCUGGGGACUGAUCGGAUUGGCAGGAAAAGAACAGAGUGCAUCUCUUGGGAUGGGCUUCUCUCGGAGUGUAAAAGCAAGGGGCCAGGAUUGUUGGAAUUCUCGGGUGCCAA | 0.365
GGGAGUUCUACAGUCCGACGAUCGGAGAACAAAUCUCUCAGACAAAUGACUUGUACUAAAUUUGGCUUUGGUUUCCAAGCCAAGGGAAAAGCUGAAGACAUGAGUAAUGAUCUUGCUUCAUGAGAUUGUACCUUGGAAUUCUCGGGUGCCAA | 0.28
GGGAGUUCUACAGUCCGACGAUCACAAAACAGCUACCAGCGGUACAGAGCGGUGAUCAAAGCCGAGUACUUACAACUCUGGUAAGCCUAGCUUCUCCGCCUCAGCCCUUCUGCUUCUGGAAGGGCUAUCCUGGUGGAAUUCUCGGGUGCCAA | 0.214
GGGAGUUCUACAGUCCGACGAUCGUCAGACUAAUUUCCUUCUUUCCUCGCACUUCUCCCCACUCGUCAUCUUUUAACUAGUGUUUCACAAGGAUCCUCUGAAACCCUCUCUGUGCCCCAAGUACAGAUGCCAUUGGAAUUCUCGGGUGCCAA | 0.608
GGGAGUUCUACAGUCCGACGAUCCUUGUCAGACCAUCAAUCUCUUGGGGUGAUUAAUCAAAUUACCCACCCAAGGCUUCUAGAAGGAGCUUCCUGCAAUGGAAGGAAGGAGAAGCUCUGAAGCCCAUGUAUGGUGGAAUUCUCGGGUGCCAA | 0.566
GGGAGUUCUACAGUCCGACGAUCGGUUGAAGGCAGAGUUUAGUAAUUAAGUUAGAAUUAAGAGUUUUGCGAGGUUAAAAAAAUGUGCCUCGUGGAUCUCCCUGUUUUAGUAACAUGGAGAGAAAAAGUCUACAUGGAAUUCUCGGGUGCCAA | 0.551
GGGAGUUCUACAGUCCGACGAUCGGGAAGAGCUAUACUUCUGGAGAAGUAGGCCUGGAGUUACUACAGUAUGGGGGAAAAGGGUCGAGUUAGAACAAAGCUAAGGCAAUUCCUAUUGCUUCCUUGCGCAACUUUGGAAUUCUCGGGUGCCAA | 0.612
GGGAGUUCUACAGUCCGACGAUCCUGUGUGGAGUCUGUGAGUGUGCUCUUGAGUAGCGUGGGCUAGCCAAUCUGCCAUUCAUGGUGUUAUAAACUCGGAAUUCCAUAUGUAAUAGGAUGCAAGUCUAAGCGUUUGGAAUUCUCGGGUGCCAA | 0.253
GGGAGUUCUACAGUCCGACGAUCAAGCUUUUGAUGGAAAAUAUGUGGGUGGAUAGUAUAUUUCUAUGGGUGGGUCUAAUUUGGUAACGGUUUGAUUGUGCCUGGUUUUAUCACCUGUUCAGAUGAGAAGAUUUUGGAAUUCUCGGGUGCCAA | 1.69
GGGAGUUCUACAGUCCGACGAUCAGUGCUCACAGUACUCAUGUGGGGCAGCCACACUAACUGCAUUAGCAGUGUGGUUACUUCUUUCUUCUGCCUCGACUCACAUGGCUUCUCCCCACGAAGGUCCCAGGGUGUGGAAUUCUCGGGUGCCAA | 0.337
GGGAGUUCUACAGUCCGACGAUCAGCACCCCGCCCCUCUGGGCACUGCCUGGAAGAAUCGGGAGCCUGGCCAGCCUUCAGCUCGCUCCUCCACUUCUGAGGGGCCUAGGAGGCCUCCCACAGGUGUCCCGGCAUGGAAUUCUCGGGUGCCAA | 4.14
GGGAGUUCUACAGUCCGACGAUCAAAUGGGACCAAACAUAUGGAAGGGGCUGCUGUCCUGCCUCAAUUUAGCCAAGACUUGUCUUGUCUCAAAGCCAAGACUCAGCAGUACAUGGAUUCUGAGAAGUCCAGGGUGGAAUUCUCGGGUGCCAA | 0.353

Set 3 — method: protein binding microarray; molecule type: double-stranded DNA, one strand shown; matrix: in vitro; tested at: not given; reference: not given; direction: higher = stronger binding
Target: Histone acetyltransferase KAT6A, both winged helices, GST fusion (KAT6A, Homo sapiens, UniProt Q92794, residues 1-181)
Notes: 8-mer, flanks averaged, mean of 2 arrays, mostly near background
Target sequence (chain): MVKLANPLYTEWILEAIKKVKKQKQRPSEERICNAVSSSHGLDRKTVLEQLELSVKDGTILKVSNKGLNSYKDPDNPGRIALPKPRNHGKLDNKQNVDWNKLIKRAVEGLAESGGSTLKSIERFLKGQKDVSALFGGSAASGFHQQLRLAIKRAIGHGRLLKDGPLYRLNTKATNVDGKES
Oligonucleotide | E-score
GCAAGTGC | -0.017
ATCAACCC | 0.0196
CACGAACG | 0.0104
CCAGTATC | -0.176
GGCGATAC | 0.153
AGTCGCTA | -0.129
AAAGTCGG | 0.00292
AAATTGCC | 0.0227
ATTGTCGA | -0.177
ACAGGCAT | -0.061
ATGACAAA | -0.122
CCCTTTAG | -0.225
ACCGGGTG | 0.206
GCTAATAA | 0.0403
GTCATGTA | -0.00101
ACCTCCGA | -0.103
ATATAAGA | -0.0125

Set 4 — method: protein-binding microarray; molecule type: double-stranded DNA, one strand shown; matrix: in vitro; tested at: 940 nM top; notes: 60-bp whole probe; with: salmon DNA 0.4 mg/ml; reference: random background probes; direction: higher = stronger binding; all sequences stand within: GCCTAGCAC … GTCTTGATTCGCTTGACGCTGCTG
Target: Interferon regulatory factor 5, full length, phosphomimetic (IRF5, Homo sapiens, UniProt Q13568-2, residues 1-514, S451D/S453D/S456D/S462D)
Oligonucleotide | fitted relative affinity
AACGGTATCGACTTTCGGGACGTGCTA | 4.71 z-score
AAGTTTACCCATCTCCAGTAGTGCTAG | 0.617 z-score
TCAGTTTCCCCTATTTAACTGTGCTAG | 3.22 z-score
AATCAACTTTTTTTAATTGAGTGCTAG | 0.447 z-score
TTAGGACTTGGTCTCGGTTAGTGCTAG | 3.11 z-score
TCCACTTTCTTTTGCTTGTTGTGCTAG | 2.35 z-score
GACGGTTTCCTCTTCCTGACGTGCTAG | 1.48 z-score
TCACTTTCCACTTGTCTTACTGTGCTA | 2.2 z-score
GAATCTCCCATTATATTTTAGTGCTAG | 1.01 z-score
TTAGTTATCGACTATCGGTTAGTGCTA | 0.83 z-score
TCAAATTTCCCACTTTCACTGTGCTAG | 2.22 z-score
GACGGTCTCGGATTCGGGACGTGCTAG | 1.14 z-score
TCAGAATTTACTTTCTAACTGTGCTAG | 0.323 z-score
TTAGGCCTGCTTATCCTTTAGTGCTAG | -0.0513 z-score
ACTCATTTTCGTTTTGTGTCGTGCTAG | 2.69 z-score
TCACATTTTGGTTTTCAACTGTGCTAG | 0.797 z-score
TTAGGTATCGGGACTGGGTTGGTGCTA | 4.24 z-score
TGTCCTTTCACTTTAACTTAGTGCTAG | 2.91 z-score
TCACTTCTCCATTTTTCACTGTGCTAG | 1.77 z-score
TCAATTGTCTCTGTCCCACTGTGCTAG | 1.4 z-score
ATTTTTTTATCAATCATTTTGTGCTAG | 0.922 z-score
TACGGTTTCGGGTTTCGGGACGTGCTA | 8.6 z-score
TTAGGTTTCGATACTGGGTTAGTGCTA | 12.7 z-score
TTAGGACTGGGGTGTCGGTTAGTGCTA | -0.0415 z-score
GACGGTATCCTACTGGTGACGTGCTAG | -0.277 z-score

A few entries again (set 4):
Oligonucleotide | fitted relative affinity
TTAGTTATCGACTATCGGTTAGTGCTA | 0.83 z-score
AACGGTATCGACTTTCGGGACGTGCTA | 4.71 z-score
TGTCCTTTCACTTTAACTTAGTGCTAG | 2.91 z-score
TCCACTTTCTTTTGCTTGTTGTGCTAG | 2.35 z-score
TTAGGTTTCGATACTGGGTTAGTGCTA | 12.7 z-score
TCAGAATTTACTTTCTAACTGTGCTAG | 0.323 z-score
